Experimental data collected from several papers.
A part holds a random share of what one study measured.

Set 1
Target: Prothrombin, mature alpha-thrombin (F2, Homo sapiens, UniProt P00734)
Technique: aptamer microarray, sandwich
Form: DNA with 2'F-ANA
Matrix: in vitro
Concentration: 200 nM
Notes: whole 15-mer aptamer, many near background
Added: Cy3 exosite-II aptamer, 400 nM
Direction: higher = stronger binding
Sequence: GGTTGGTGTGGTTGG
Modification	mean fluorescence intensity [a.u.]
2'F-ANA at 1 3 4 7 8 10 12 13 14 15	76.7
2'F-ANA at 3 4 7 9 10 12 14	249
2'F-ANA at 1 2 10 11 12	60.7
2'F-ANA at 2 5 9 10 11 15	84.5
2'F-ANA at 3 4 8 10 12 14 15	204
2'F-ANA at 2 3 6 7 9 10 14 15	251
2'F-ANA at 4 5 8 9 11 12 14	49.3
2'F-ANA at 4 6 7 9 10 13 14 15	69.2
2'F-ANA at 3 6 7 9 10 11 12 13 15	407
2'F-ANA at 2 3 4 7 11 12	818
2'F-ANA at 3 7 10 15	676
2'F-ANA at 3 5 6 7 8 12 13 14 15	59.2
2'F-ANA at 4 5 6 9 10 13 14 15	44.8
2'F-ANA at 1 2 4 7 8 13 14	56.4
2'F-ANA at 3 4 8 10 11 13 14 15	195
2'F-ANA at 1 2 4 7 11 14 15	52.9
2'F-ANA at 2 6 8 9 10 11 12 13 15	166
2'F-ANA at 1 4 5 6 8 9 11 13 15	68.5
2'F-ANA at 3 4 5 6 9 10 11 14	53.7
2'F-ANA at 1 2 7 9 10 11 12 13 14	50.7
2'F-ANA at 1 7 8 9 10 11 12 14 15	50.3
2'F-ANA at 3 8 12 13	1350
2'F-ANA at 3 4 9 11 12	769
2'F-ANA at 1 3 4 6 10 11 13 14 15	53.2
2'F-ANA at 1 2 4 6 7 10 11 13 14	47

Set 2
Target: Histone acetyltransferase KAT6A, winged helix 1, GST fusion (KAT6A, Homo sapiens, UniProt Q92794, residues 1-85)
Technique: protein binding microarray
Form: double-stranded DNA, one strand shown
Matrix: in vitro
Concentration: not given
Notes: 8-mer, flanks averaged, mean of 2 arrays, mostly near background
Baseline: not given
Direction: higher = stronger binding
Target sequence (chain): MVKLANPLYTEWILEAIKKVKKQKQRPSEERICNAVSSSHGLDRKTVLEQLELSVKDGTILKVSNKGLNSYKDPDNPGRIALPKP
Sequence	E-score
ACGTCTCG	-0.0411
AATCGTTC	-0.158
CGTTGCGC	0.37
CGCCGGAG	0.297
GAAAGACC	0.026
CGGCGGAC	0.427
CGCGTGGC	0.302
GGATACCA	0.0897
AAGCAGCT	-0.0793
GAGCTATC	0.0577
CAAGGCTC	-0.0546
AGTCCATC	-0.107
ACCTACAG	-0.024
ACGGTGAC	0.0603
CTGCAGCA	-0.169
AAGTGCAT	-0.196
ATTGCAGC	-0.0272
AATATGCG	0.0627
AAGCTATT	-0.159
AAAGCCCC	-0.0976
CTCCCGAC	0.268
GGACTACA	-0.0194
ATTCGTTG	-0.196
AGGCGTGA	-0.0816
AAGGTTAG	-0.133

Set 3
Target: Sal-like protein 4, full length isoform A (SALL4, Homo sapiens, UniProt Q9UJQ4, residues 1-1053)
UniProt Q9UJQ4, sequence (whole entry, looked up): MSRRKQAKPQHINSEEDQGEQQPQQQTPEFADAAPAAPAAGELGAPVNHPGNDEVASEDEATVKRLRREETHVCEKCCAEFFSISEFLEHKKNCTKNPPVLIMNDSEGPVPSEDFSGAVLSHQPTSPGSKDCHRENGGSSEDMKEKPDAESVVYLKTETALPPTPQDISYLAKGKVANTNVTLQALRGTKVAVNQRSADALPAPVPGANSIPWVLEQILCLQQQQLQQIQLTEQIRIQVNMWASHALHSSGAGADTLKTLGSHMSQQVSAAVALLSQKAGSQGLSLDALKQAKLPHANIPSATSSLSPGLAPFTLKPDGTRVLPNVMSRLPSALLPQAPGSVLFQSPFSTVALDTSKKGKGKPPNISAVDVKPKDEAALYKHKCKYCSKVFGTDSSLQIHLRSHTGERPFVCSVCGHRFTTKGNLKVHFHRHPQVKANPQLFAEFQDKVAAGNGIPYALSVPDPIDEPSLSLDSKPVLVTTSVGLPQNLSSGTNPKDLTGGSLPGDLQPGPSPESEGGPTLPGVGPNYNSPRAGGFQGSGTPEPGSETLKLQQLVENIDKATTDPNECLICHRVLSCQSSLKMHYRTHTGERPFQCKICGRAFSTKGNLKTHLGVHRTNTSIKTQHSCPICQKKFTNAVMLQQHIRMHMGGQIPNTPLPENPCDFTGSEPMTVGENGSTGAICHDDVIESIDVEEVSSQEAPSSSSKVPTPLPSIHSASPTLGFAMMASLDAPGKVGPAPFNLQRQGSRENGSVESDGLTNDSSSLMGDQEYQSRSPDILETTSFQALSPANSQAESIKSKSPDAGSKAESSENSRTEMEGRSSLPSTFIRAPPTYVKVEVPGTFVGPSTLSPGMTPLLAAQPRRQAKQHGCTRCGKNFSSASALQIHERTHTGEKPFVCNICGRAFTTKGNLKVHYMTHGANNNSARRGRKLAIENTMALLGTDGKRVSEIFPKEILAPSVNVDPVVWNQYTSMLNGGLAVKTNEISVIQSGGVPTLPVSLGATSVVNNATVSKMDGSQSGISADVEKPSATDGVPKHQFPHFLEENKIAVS
Technique: universal PBM
Form: double-stranded DNA, one strand shown
Matrix: in vitro
Concentration: 600 nM
Notes: 8-mer, flanks averaged, mean of replicates
Direction: higher = stronger binding
Sequence	E-score
GAGGAGGA	-0.166
ATTTAAGC	0.269
CAACCGTA	-0.13
AAACGCCA	-0.0471
CGTCGGCC	-0.334
CCACGCCC	-0.374
ACGGTTCT	-0.114
AAGCTTCA	-0.0817
TACCCATA	0.191
CAGGCCCC	-0.418
ACAACAAG	0.132
ACCGATTC	-0.154
TACTGTGA	0.0895
CGCCTTCC	-0.221
ACAGTTCT	0.0755
ATTGGTTA	0.255
GACCTGAC	-0.173
CCTGAGTA	0.00961
ACGACCAA	-0.0225
TATTACCA	0.364

Set 4
Target: RING finger protein unkempt homolog, zinc fingers 1-6, GST-SBP tag (UNK, Homo sapiens, UniProt Q9C0B0, residues 30-357)
UniProt Q9C0B0, sequence (30-357, looked up): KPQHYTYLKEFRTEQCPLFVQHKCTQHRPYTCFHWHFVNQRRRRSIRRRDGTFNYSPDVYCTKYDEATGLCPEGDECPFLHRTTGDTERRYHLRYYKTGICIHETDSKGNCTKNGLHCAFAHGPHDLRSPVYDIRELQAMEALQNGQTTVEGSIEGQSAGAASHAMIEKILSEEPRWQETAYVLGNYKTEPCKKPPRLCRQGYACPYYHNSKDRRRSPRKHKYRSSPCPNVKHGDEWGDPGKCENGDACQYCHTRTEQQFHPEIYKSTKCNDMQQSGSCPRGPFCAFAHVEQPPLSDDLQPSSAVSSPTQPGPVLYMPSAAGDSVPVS
Technique: RNA Bind-n-Seq
Form: RNA
Matrix: in vitro
Concentration: not given
Notes: RNA with constant flanks, ends assumed
Baseline: input RNA pool
Direction: higher = stronger binding
All sequences stand within: GGGAGUUCUACAGUCCGACGAUC … CAACAGAGGAUUGAGCAUCA
Sequence	bound/input enrichment
AAUGCUAAAGGUAUAUCGUAAGGGUAGUGUUUGUUUUUGAACGAUAAUUUAGAAGUUCUCACCGAAAGCGUAUAACAUAGGUCUUCAGAAACUAUAAAAGAAUUUUCAUAUAGUAUUAAA	10.7 ratio
AAAGCACACAGACUUCUCAGCCCAUGUACUGUGCCUGCCAAGCCAUUGGAACCUGAAACCGCCGCCCGCGAGAACUUGCGCAGCCACAUACCAAAGCCGAAGGCUACUCUGUGCCAUUCC	0.147 ratio
UGGUUUCUAACAGCUGAAGGCAAUGAAUGGCUACUUCAAGGACAGAUAGCAGCUGGAGAUACCGAGAACAUUUCCAGUCAACCAACAAUUUCACUACAAAUUCCUGAUGAUUGCUUAUCA	0.158 ratio
UUAAAGAUCAGCAAUUUAAAGAAAAUUUUAAAAGGCAUCUUGGAUUACAAUCAUGAGAUUUCCGGACAGCAGAUUAAUGAUUUCACCCUUCCUGACGUGAACCUCAUUGGGGAGCAUUCG	0.262 ratio
ACAGAAGUGGAUCGAGCAAGUCACUGGUCGAAGUUUUGGUGACAAAGACUUCCGGACAGGACCCGAAAAUGGGAUCCUCCUUUGCGAGUUGCUGAAUGCUAUAAAGCCAGGACUUGUUAA	0.119 ratio
GAUAUUCUUCUUCUCAUUGUCCGUCUGGCUGUGUUAAUGGCUGUGACCCUGACAGUACCAGCCGUUAUUUUCCCAAUCCGGAGUUCUGUAACUCACUUGUUGUGUGCAUCAAAAGAUUUC	0.175 ratio
UCUGGAAGUGGAAUCCUUACUGCAUGUUUUGCACGUAUGGUUGGAUGUACUGGAAAAGUCACCGGAAUUGAUCACAUUAAAGAGCUAGUAGAUGACUCAGUAAAUAAUGUCAGGAAGGAC	0.476 ratio
CUCCCUCAACCAAUUUAUAGACACAUAGCAUCUUUCCUGUCAGUCUUCAAACUAGUAUUAACCGGCUUAAUAAUUGUUGGCAAAGAUCCUUUUGCUUUUUUCGGCAUGCAAGCUCCUAGC	67.5 ratio
UCUUUUUCCUGGACUACAGACUGCAAUCCCCGUAGGGAGUGGCAUUGCUCACAUAGACAUCCGUAUUUUACUGAGGGUAUCAGCACCAUGGCCACUGAAGACCAGACAUAGGGUUGGGAA	1.84 ratio
AUUUGCUGUCUUUAGAGGCCACGGCUUCAUUUCUAUGCGUAAAAAGCUCAUUUAGCAAUGCCGUUAUUUCAGUAUUUAUUUCUAUUAUGGAAUCCCUGGGGUUCGGAAUGUAACUUUGUA	0.59 ratio
AAGUUCACUGGAAGUGAGAUUCGGGUGAGGGAUGACAAGAUGCCAUUGGCGCACCUUGCAACCGCUGUUGAAGCAGUUGGUUGGGCCCAUCCAGACACGAUCUGUCUCAUGGUCGCAAAC	0.101 ratio

Set 5
Target: TAR DNA-binding protein 43, full length, His tag (TARDBP, Homo sapiens, UniProt Q13148, residues 1-414)
Technique: RNA Bind-n-Seq
Form: RNA
Matrix: in vitro
Concentration: 20 nM
Notes: 6-mer, flanks averaged, single round
Added: 150 mM LiCl
Baseline: input library
Direction: higher = stronger binding
Sequence	6-mer enrichment (R)
CGAAAU	0.812
CACCGU	0.911
GGGCGG	1.33
GAGCAG	1.03
CGCGUC	0.92
CAGUGA	0.918
CAUAGC	0.85
CGUCGG	1.11
CUAGCG	0.911
CGAUUG	0.897
AAGCUU	0.847
CUUUUG	1.14
GGGGCC	1.26
AAAUCC	0.837
UACAGC	0.839
UUGGCG	1.06
UCUUUA	1.02
CAGUGG	1.08
GCUAUA	0.908
CCUGAC	0.91
GUUGCG	1.23
UUUCGG	0.981

Set 6
Target: Ras GTPase-activating protein-binding protein 1, full length (G3BP1, Homo sapiens, UniProt Q13283)
UniProt Q13283, sequence (whole entry, looked up): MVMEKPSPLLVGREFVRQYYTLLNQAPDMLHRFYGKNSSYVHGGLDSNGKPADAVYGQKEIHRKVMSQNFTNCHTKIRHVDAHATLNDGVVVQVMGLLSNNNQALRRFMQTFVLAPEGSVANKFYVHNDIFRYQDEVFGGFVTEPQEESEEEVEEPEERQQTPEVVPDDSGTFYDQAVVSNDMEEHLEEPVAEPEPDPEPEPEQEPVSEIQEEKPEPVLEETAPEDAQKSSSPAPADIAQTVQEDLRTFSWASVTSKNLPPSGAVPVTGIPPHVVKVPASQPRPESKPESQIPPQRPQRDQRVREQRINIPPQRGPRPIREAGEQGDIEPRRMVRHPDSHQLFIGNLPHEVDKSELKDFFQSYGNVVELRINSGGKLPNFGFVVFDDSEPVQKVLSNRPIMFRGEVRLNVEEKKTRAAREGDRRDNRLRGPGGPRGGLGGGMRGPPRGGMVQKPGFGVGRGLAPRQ
Technique: RNA Bind-n-Seq
Form: RNA
Matrix: in vitro
Concentration: 200 nM
Notes: whole 134-nt RNA, ends assumed
Added: 150 mM KCl
Baseline: input library
Direction: higher = stronger binding
All sequences stand within: GGGAGUUCUACAGUCCGACGAUC … UGGAAUUCUCGGGUGUCAAGG
Sequence	log2 enrichment
UGGCCCUGGUGGCAUGCGGGGAGGAAGAGGUGGCCUCAUGGAUCGUGGUGGUCCCGGUGGAAUGUUCAGAAGUGGCCGUGGUGGAGACAG	0.442
UCCUGUGCUACACAUCGUAUGUACCGAAUCGGCCCCCCGGGGCCCCCCGGCCCCCCGGGGAAAGUAUUAUGUUACGCCGUUCGGAUCUGC	-0.414
UUGUGUUCGUGAAUUGUAACUCCAGAAGCAAUGCCUGUACAAGCUCCACAAUGGACGGAUUUCCUCUCCUGCCCAAUUUGCACUCAGACU	1.14
UCCUCAAGUCCUGUGCUACACAUCGUAUGUACCGAAUCGGCGGCGGGGCGGGAAAGUAUUAUGUUACGCCGUUCGGAUCUGCACUUCCAG	0.307
AAGUCCUGUGCUACACAUCGUAUGUACCGAAUCGGGUUUGGGGUUUGGGGUUUGGGGAAAGUAUUAUGUUACGCCGUUCGGAUCUGCACU	0.224
CCUGUGCUACACAUCGUAUGUACCGAAUCGGGUUUUUUGGGGUUUUUUGGGGUUUUUUGGAAAGUAUUAUGUUACGCCGUUCGGAUCUGC	-0.559
UCCUCAAGUCCUGUGCUACACAUCGUAUGUACCGAAUCGGGAGGAGGAGGGAAAGUAUUAUGUUACGCCGUUCGGAUCUGCACUUCCAGC	-0.417
CUGUGCUACACAUCGUAUGUACCGAAUCGGGCCCCCCCGGCCCCCCCGGGGCCCCCCCGGGGAAAGUAUUAUGUUACGCCGUUCGGAUCU	-1.07
CCUGUGCUACACAUCGUAUGUACCGAAUCGGGGAAAAAAGGAAAAAAGGGAAAAAAGGGGAAAGUAUUAUGUUACGCCGUUCGGAUCUGC	-0.476
CACAGACAACACGCACCCACACAGACACAGAGGGAAGGGGUUGGGAUGGGGACAGGGUGCACAGCAGGGCGGGUUAGGACCCCAGCCCCU	2.05
UCAAGUCCUGUGCUACACAUCGUAUGUACCGAAUCGGUUUUUGGUUUGGAAAGGAAAGUAUUAUGUUACGCCGUUCGGAUCUGCACUUCC	-1.19
UGGCCCUGGUGGCAUGCGGGGAGGAAGAGGUGGCCUCAUGGAUCGUUGUGGUCCCGGUGGAAUGUUCAGAGGUGGCCGUGGUGGAGACAG	0.189
UUUUCUUCUGGGGCAUUUAUCCGUGCUGAUCUUGGUGAAUGGGGCAUGAGUCUAACGAUCAGAGCCCCUAGUGUAGAUUACAGAAACACU	-0.222
CACAGACAACACGCACCCACACAGACACAGAGGGAAGGGGUUGGGAUGGGGACAGGGUGCACAGCAGGGCGGGGUAGGACCCCAGCCCGU	1.81

Repeated from above (set 4):
Sequence	bound/input enrichment
AAUGCUAAAGGUAUAUCGUAAGGGUAGUGUUUGUUUUUGAACGAUAAUUUAGAAGUUCUCACCGAAAGCGUAUAACAUAGGUCUUCAGAAACUAUAAAAGAAUUUUCAUAUAGUAUUAAA	10.7 ratio
AAAGCACACAGACUUCUCAGCCCAUGUACUGUGCCUGCCAAGCCAUUGGAACCUGAAACCGCCGCCCGCGAGAACUUGCGCAGCCACAUACCAAAGCCGAAGGCUACUCUGUGCCAUUCC	0.147 ratio
UGGUUUCUAACAGCUGAAGGCAAUGAAUGGCUACUUCAAGGACAGAUAGCAGCUGGAGAUACCGAGAACAUUUCCAGUCAACCAACAAUUUCACUACAAAUUCCUGAUGAUUGCUUAUCA	0.158 ratio
UUAAAGAUCAGCAAUUUAAAGAAAAUUUUAAAAGGCAUCUUGGAUUACAAUCAUGAGAUUUCCGGACAGCAGAUUAAUGAUUUCACCCUUCCUGACGUGAACCUCAUUGGGGAGCAUUCG	0.262 ratio
ACAGAAGUGGAUCGAGCAAGUCACUGGUCGAAGUUUUGGUGACAAAGACUUCCGGACAGGACCCGAAAAUGGGAUCCUCCUUUGCGAGUUGCUGAAUGCUAUAAAGCCAGGACUUGUUAA	0.119 ratio
GAUAUUCUUCUUCUCAUUGUCCGUCUGGCUGUGUUAAUGGCUGUGACCCUGACAGUACCAGCCGUUAUUUUCCCAAUCCGGAGUUCUGUAACUCACUUGUUGUGUGCAUCAAAAGAUUUC	0.175 ratio
UCUGGAAGUGGAAUCCUUACUGCAUGUUUUGCACGUAUGGUUGGAUGUACUGGAAAAGUCACCGGAAUUGAUCACAUUAAAGAGCUAGUAGAUGACUCAGUAAAUAAUGUCAGGAAGGAC	0.476 ratio
CUCCCUCAACCAAUUUAUAGACACAUAGCAUCUUUCCUGUCAGUCUUCAAACUAGUAUUAACCGGCUUAAUAAUUGUUGGCAAAGAUCCUUUUGCUUUUUUCGGCAUGCAAGCUCCUAGC	67.5 ratio
UCUUUUUCCUGGACUACAGACUGCAAUCCCCGUAGGGAGUGGCAUUGCUCACAUAGACAUCCGUAUUUUACUGAGGGUAUCAGCACCAUGGCCACUGAAGACCAGACAUAGGGUUGGGAA	1.84 ratio
AUUUGCUGUCUUUAGAGGCCACGGCUUCAUUUCUAUGCGUAAAAAGCUCAUUUAGCAAUGCCGUUAUUUCAGUAUUUAUUUCUAUUAUGGAAUCCCUGGGGUUCGGAAUGUAACUUUGUA	0.59 ratio
AAGUUCACUGGAAGUGAGAUUCGGGUGAGGGAUGACAAGAUGCCAUUGGCGCACCUUGCAACCGCUGUUGAAGCAGUUGGUUGGGCCCAUCCAGACACGAUCUGUCUCAUGGUCGCAAAC	0.101 ratio
